Published values of several laboratories.
Protocols differ between the studies behind these lines. ± gives the spread as reported.

COc1cccc(C=CC(=O)C=Cc2cccc(OC)c2OC)c1OC: apoptosis “no effect” (acridine orange staining; zebrafish (Danio rerio) larvae; up to 25 µM, larvae at 96 hpf).
Clc1ccc(-c2ccccc2)cc1 has a gamma-glutamyltransferase of 0.3 ± 0.6 U/L (Sprague-Dawley rats, female, serum; inhalation, 23 µg/rat, 1 h after exposure).
The freeze-thaw stability of O=c1nc(NO)ccn1[C@@H]1O[C@H](CO)[C@@H](O)[C@H]1O is reported as 90.4 ± 4.92% (rat maternal placenta dialysate; 25 ng/mL, low concentration, three cycles, added: molnupiravir 5 ng/mL).
Under “drug-related abnormal liver function”, C[C@@H](NC(=O)N1C(=O)[C@H](Cc2ccnc(N)c2)[C@H]1C(=O)O)C1CCCCC1 is recorded as 25% (healthy adult Chinese volunteers; continuous intravenous infusion, 2.25 mg/kg/h, 5-day infusion, CTCAE 5.0 grading).
COc1ncnn2ccc(-c3cnc4nc(C)n(Cc5nnc([C@@H](C)F)o5)c4c3)c12: “incidence of grade 1 nausea” 0% (human patients; oral, dose not given).
C[C@]1(O)C[C@@](N)(c2ccc(-c3nc4n(c3-c3ccccc3)COc3ccncc3-4)cc2)C1: “patients with Stomatitis TEAE” 100% (human, advanced or metastatic solid tumours; 28 mg intermittent, phase I dose escalation).
Under “weight loss incidence”, COc1c(OCCCN2CCOCC2)ccc2c1N=C(NC(=O)c1cnc(N)nc1)N1CCN=C21 is recorded as 24% (patients with advanced malignancies; intravenous, dose not given, all grades, all cohorts, added: gemcitabine).
For CCc1ccc(CC/C=C/c2ccc3c(c2)C(=O)CC3)cc1, the APTT was 16 s (Sprague-Dawley rat, female; oral, 450 mg/kg/day, 14 days).
O=C(O)CNCP(=O)(O)O — result for “dose fraction in skim milk”: 99% (whole cow milk; 2000 nM nominal).
For CO[C@H]1C[C@@H]2CC[C@@H](C)[C@@](O)(O2)C(=O)C(=O)N2CCCC[C@H]2C(=O)O[C@H]([C@H](C)C[C@@H]2CC[C@@H](OC(=O)NCCOCCOCCOCCOCCOCCOCCOCCOCCC(=O)N3CCc4cc(Cn5nc(-c6ccc7oc(N)nc7c6)c6c(N)ncnc65)ccc4C3)[C@H](OC)C2)C[C@@H](O)[C@H](C)/C=C(\C)[C@@H](O)[C@@H](OC)C(=O)[C@H](C)C[C@H](C)/C=C/C=C/C=C/1C, the dysgeusia incidence was 6.3% (patients with advanced solid tumours; intravenous, 8 mg weekly, any grade).
CC(=O)c1c(C)c2cnc(Nc3ccc(C4CCN(CCS(C)(=O)=O)CC4)cn3)nc2n(C2CCCC2)c1=O: “maximum tolerated dose” 6 mg/kg (beagle dog, both sexes; oral, 4 weeks, repeated dosing).
COc1cc2c(Oc3ccc4[nH]c(C)cc4c3F)ccnc2cc1OCC1(N)CC1 — result for “grade 3 Nausea”: 0% (paediatric recurrent refractory sarcoma; 8 mg/kg).
For COc1ccc(-c2c(-c3ccc(C#N)c(F)c3)nc(N3CCC(N)CC3)n(C)c2=O)cc1F, “serious adverse event incidence” read 2% (item: tumor pain; human patients; oral, dose not given, dose escalation, NG).

Excerpt of the above:
Under “weight loss incidence”, COc1c(OCCCN2CCOCC2)ccc2c1N=C(NC(=O)c1cnc(N)nc1)N1CCN=C21 is recorded as 24% (patients with advanced malignancies; intravenous, dose not given, all grades, all cohorts, added: gemcitabine).
